Measurements pooled from the literature.
Each line is one published result; not all experiments were run side by side. ± gives the spread as reported.

SMILES | assay | system | setting | scale | endpoint | result
Oc1ccc(Br)cc1C=NCCN1CCOCC1 | FRAP |  | 120 µM |  | ferric reducing power | 22.6%
COc1cc2nccc(Oc3ccc(NC(=O)c4cc5c(n(-c6ccccc6)c4=O)CCCC5=O)nc3)c2cc1OC | logrank | MOLM-13 luc/gfp xenograft, mice | diet, 0.013% in feed | baseline: control over treated | hazard ratio | 3.01
CCOc1c([C@H](C)n2nc(C)c3c(N)ncnc32)cc(Cl)c(F)c1[C@@H]1CNC(=O)C1 | Olink proximity extension proteomics, measured: TNFB | human FL or MZL patients, plasma | dose not given, week 8 | baseline: baseline | plasma protein level change | -54%
O=C1Nc2cc3[nH]nc(-c4ccncc4)c3cc2CN1Cc1ccccc1 | RECIST v1.1 | human, relapsed or refractory advanced solid tumours | intravenous, 3.6 mg/kg |  | progressive disease, best response | 0%
CC1=CC(=O)CC(C)(C)[C@@]1(O)/C=C/C(C)=C\C(=O)O | RNA-seq, measured: AT1G01470 | Arabidopsis thaliana Col seedlings | dose not given | baseline: DMSO | log2 fold change | 2.35
CC(C)NCC(O)c1ccc(O)c(O)c1 (stereo not drawn) |  | ventricular cardiomyocytes, C57BL/6 mouse | dose not given, 0.492 s |  | sarcomere length | 1.54 µm
C[C@H]1C[C@H]2CSC(N)=N[C@@]2(c2nc(NC(=O)c3ccc(OC(F)F)cn3)cs2)CO1 | measured: Aβx-40 | healthy adults, plasma | 3 mg single dose, 48 h post-dose | baseline: placebo | percent change from baseline | -18%
Cc1nc(C#Cc2cccnc2)cs1 | spontaneous epileptiform population spikes, field recording | CA3 pyramidal neurons, rat, hippocampal slice | 10 µM, 10 min | baseline: baseline | inter-event interval | 143 ± 14.4%
Cn1cc(Nc2nccc(-c3ccc4c(c3)CN(C3COC3)CC[C@H]4NC(=O)c3cn(C(C)(C)C)nn3)n2)cn1 | measured: GDNF Family Ligand-Receptor Interactions | splenic B cells, Mus musculus | 30 mg/kg, added: IgD activation | baseline: vehicle, direction not given | pathway activation z-score | 3
C[C@H](Oc1ccc(Br)cc1-c1ccon1)C(=O)O | muscle velocity recovery cycles | human, tibialis anterior muscle | 600 mg once daily, multiple doses, frequency ramp, last response at 15 Hz | baseline: placebo | latency change | 0.623%
CC(c1cc2ccccc2s1)N(O)C(N)=O (stereo not drawn) |  | human blood | 3 µM, added: A23187 |  | 5-HETE level | 2000 ± 1060 pg/mL
O=C(Nc1c(Cl)cncc1Cl)c1ccc(OC(F)F)c(OCC2CC2)c1 |  | mouse, human PBMC GvHD model, plasma | 1 mg/kg once daily, unit not given | baseline: vehicle | plasma TNF-alpha difference | 0.298
COc1ncc(-c2nc3c(n2C(C)C)[C@H](c2ccc(Cl)cc2)N(c2cc(Cl)cn(C)c2=O)C3=O)c(OC)n1 | International Working Group criteria | human acute myeloid leukemia patients | oral, 150 mg, response CR, high-dose, other doses |  | best overall response | 0%
CC1(C)OCCn2c1nc1c(N3CCOCC3)nc(-c3cnc(N)nc3)nc12 | RNA sequencing, measured: HALLMARK_INTERFERON_ALPHA_RESPONSE | MB002 tumour | concentration not given | baseline: vehicle, direction not given | GSEA enrichment score | 0.205
O=C(O)CNC(=O)Cc1ccccc1 |  | ventricular cardiomyocytes, C57BL/6 mouse | dose not given, 0.312 s |  | sarcomere length | 1.71 µm
Cc1ncc(C[n+]2csc(CCO[P@](=O)(O)OP(=O)(O)O)c2C)c(N)n1 | binding, MIDAS equilibrium dialysis LC-MS | A2AR-BRIL thermostabilized | concentration not given | baseline: no-protein control | log2 fold change | -0.292
C=CCn1c(=O)c2cnc(Nc3ccc(N4CCN(C)CC4)cc3)nc2n1-c1ccc2c(n1)[C@@](O)(CC)CC2 |  | OVCAR-3 xenograft, NOD/SCID mouse | 90 mg/kg once daily, :2 |  | tumour growth inhibition | 99.8%
Cc1cc([C@H]2C[C@H]3[C@@H](CF)SC(N)=N[C@@]3(c3ccc(F)cc3F)CO2)on1 | measured: Aβx-40 | Mus musculus wild-type, cerebrospinal fluid | subcutaneous, 100 mg/kg, 3 h |  | Aβ40 level | 0.2 ng/mL
O=c1[nH]cnc2c1ncn2[C@@H]1O[C@H](COP(=O)(O)OP(=O)(O)OP(=O)(O)O)[C@@H](O)[C@H]1O | binding, MIDAS equilibrium dialysis LC-MS | A2AR-BRIL thermostabilized | concentration not given | baseline: no-protein control | log2 fold change | -0.732
NCC(=O)Nc1cncc(-c2nn3c(=O)cc(N4CCNCC4)nc3s2)c1 | ADP-induced platelet aggregation, light transmission aggregometry | human, stable CAD on aspirin, ex vivo platelets | subcutaneous, 0.04 mg/kg, 90 min post-dose, median value, added: ADP 20 µM |  | inhibition | 6.8%
N#CCC1CCN(c2nc(Nc3ccc(N4CCC(O)CC4)cc3)c3c(=O)[nH]ncc3n2)CC1 | Olink multiplex | human, serum | 80 mg, day 15, unit not given | baseline: baseline | GIF level change | 1.39
O=C1O[C@H]([C@@H](O)CO)C(O)=C1O | FRAP |  | 160 µM |  | ferric reducing power | 68.8%
Cc1coc([C@H]2C[C@H]3[C@@H](CF)SC(N)=N[C@@]3(c3ccc(F)cc3F)CO2)n1 | measured: Aβx-40 | wild-type mouse, brain | subcutaneous, 80 mg/kg, 7 h |  | brain Aβ40 level | 2.14 ng/g
O=P(O)(O)C(Cl)(Cl)P(=O)(O)O | immunostaining | mouse, sham-operated, meninges | dose not given, day 7 | baseline: total area | GFAP-positive area | 3.21%
O=c1ccn([C@H]2C[C@H](O)[C@@H](COP(=O)(O)OP(=O)(O)OP(=O)(O)O)O2)c(=O)[nH]1 | binding, MIDAS equilibrium dialysis LC-MS | A2AR-BRIL thermostabilized | concentration not given | baseline: no-protein control | log2 fold change | -0.924
COc1ccc(Oc2cc(N(C)CCOc3ccc(CC4SC(=O)NC4=O)cc3)ncn2)cc1 (stereo not drawn) |  | type 2 diabetes patients | 0.5 mg once daily, 12 weeks | baseline: baseline | fasting blood glucose reduction | 36.1 mg/dL

SMILES | assay | system | setting | scale | endpoint | result
C[C@@H]1CCC[C@H](n2cnc(-c3cc(Cl)ccc3-n3cc(Cl)nn3)cc2=O)c2cc(ccn2)-c2c(cnn2C(F)F)NC1=O |  | dog plasma | IC2.5× aPTT, Actin FS reagent |  | concentration for aPTT prolongation | 4 µM
CC[C@H](C)[C@H](N)C(=O)O | binding, MIDAS equilibrium dialysis LC-MS | A2AR-BRIL thermostabilized | concentration not given | baseline: no-protein control | log2 fold change | -0.114
Cc1cc(Nc2cc3ncccc3c(N[C@@H]3C[C@H]4CC[C@@H](C3)N4CCC#N)n2)n[nH]1 |  | moderate-severe ulcerative colitis patients | 270 mg, day 28, unit not given | baseline: baseline | change in total Mayo | -2.5
CC[C@H]1[C@@H](O)[C@@H]2[C@H](CC[C@]3(C)[C@@H]([C@H](C)CCC(=O)O)CC[C@@H]23)[C@@]2(C)CC[C@@H](O)C[C@@H]12 |  | C57BL/6J mouse, AMLN diet NASH model | dose not given, terminal |  | plasma insulin | 0.7 ± 0.1 ng/mL
Cc1cc([C@H]2C[C@H]3[C@@H](C)SC(N)=N[C@@]3(c3ccc(F)cc3F)CO2)on1 | measured: Aβx-40 | Mus musculus wild-type, cerebrospinal fluid | subcutaneous, 50 mg/kg, 18 h |  | Aβ40 level | 1.61 ng/mL
N#Cc1ccc2c(-c3ccncc3)c(-c3ccc(F)cc3)nn2c1 | kinase binding, competitor, MIB/MS competition, measured: NIK1 | Candida albicans cell lysate | 10 µM | baseline: DMSO | log2 fold change | -0.607
OC(CCN1CCCCC1)(c1ccccc1)C1CC2C=CC1C2 (stereo not drawn) | resting-state EEG | healthy elderly humans | oral, 2 mg, eyes open, LS mean |  | power, theta EEG, Fz-Cz | 2.5 µV²
CC(C)c1c(C(=O)Nc2ccccc2)c(-c2ccccc2)c(-c2ccc(F)cc2)n1CC[C@@H](O)C[C@@H](O)CC(=O)O |  | cynomolgus monkey, female, serum | 40 mg/kg or 25 mg/kg, day 86, 2064 h |  | HDL-C | 38.4 mg/dL
O=C1CCc2ccc(OCCCCN3CCN(c4cccc(Cl)c4Cl)CC3)cc2N1 | stop or switch frequency | human patients, CYP2D6 ultrarapid metabolizers | dose not given, 12 months, genetic phenotype only |  | treatment discontinuation | 52%
NCC(=O)O | binding, MIDAS equilibrium dialysis LC-MS | A2AR-BRIL thermostabilized | concentration not given | baseline: no-protein control | log2 fold change | -0.326
O=C(OC(C(F)(F)F)C(F)(F)F)N1CCN(Cc2cccc(Oc3ccccc3)c2)CC1 | PET blocking study | rhesus monkey, brain HIP | 0.3 mg/kg, compound pretreatment, added: [18F]T-401 tracer |  | k4 | 0.24 min⁻¹
N#Cc1ccc2c(c1)[C@H]1CCCN(C(=O)c3ccc4[nH]cnc4c3)[C@H]1C2 |  | T2DM patients with overweight or obesity, plasma | oral, 20 mg, day 15 (360 h), multiple dosing, mean |  | fasting plasma glucose | 141 mg/dL
N[C@@H](CC(=O)N1CCn2c(nnc2C(F)(F)F)C1)Cc1cc(F)c(F)cc1F | measured: epithelial, immune, stromal cells | naive C57BL/6J mice | oral, 100 mg/kg twice daily, 2 d |  | Ki-67+ proliferating cells | no effect
CCCCCN1C[C@H](O)[C@@H](O)[C@H](O)[C@@H]1CO | RNA sequencing, measured: Hallmark interferon gamma genes | Hexb-/- mouse, hippocampus | 300 mg/kg/day | direction not given | genomic disease score | 0.47
CSCCNc1nc(SCCC(F)(F)F)nc2c1ncn2[C@@H]1O[C@H](COP(=O)(O)OP(=O)(O)C(Cl)(Cl)P(=O)(O)O)[C@@H](O)[C@H]1O | platelet aggregation, light transmittance aggregometry | human, platelet-rich plasma | dose not given, 15 min, IPA above 90 %, added: TRAP 5 µM | baseline: patients | patients with IPA above threshold | 5.1%
Cc1noc(C)c1-c1cc(C(O)(c2ccccn2)c2ccccn2)c2nc(C3CC3)[nH]c2c1 | measured: HEXIM1 expression | human, peripheral blood | 6 mg, day 8, 1604 study |  | maximum induction | 79%
NC(=O)c1cnc2[nH]ccc2c1N[C@@H]1[C@@H]2CC3C[C@H]1C[C@@](O)(C3)C2 | CD8+ naive T cells, flow cytometry | Caucasian humans, peripheral blood | 60 mg single dose | baseline: baseline | percent change | -0.63%
c1ccc(-c2n[nH]cc2-c2ccnc3ccccc23)nc1 | kinase binding, competitor, MIB/MS competition, measured: SSK2 | Candida albicans cell lysate | 10 µM | baseline: DMSO | log2 fold change | 1.07
O=C(COc1ccc(Cl)cc1)NC12CC(c3nnc([C@H]4C[C@@H](OC(F)(F)F)C4)o3)(C1)C2 |  | healthy human, PBMC | oral, 15 mg single dose, day 2, 24 h post-dose, median, added: sodium arsenite ex vivo | baseline: baseline | ATF4 protein change | -4.56%
NC(=O)NCCC[C@H](N)C(=O)O | binding, MIDAS equilibrium dialysis LC-MS | A2AR-BRIL thermostabilized | concentration not given | baseline: no-protein control | log2 fold change | 0.795
COc1ccc(-c2cncc(N[C@@H](C)c3cccc(NC(=O)c4cncc(C)c4)c3)n2)cc1OC | measured: rno-miR-369-3p | rat SU5416/hypoxia model, lung | dose not given, unit not given | baseline: SU5416/hypoxia vehicle | delta delta Ct | -0.242
CC(CNC(N)=O)C(=O)O (racemic) | binding, MIDAS equilibrium dialysis LC-MS | A2AR-BRIL thermostabilized | concentration not given | baseline: no-protein control | log2 fold change | -0.0538
CC(=O)Oc1cc2c(s1)CCN(C(C(=O)C1CC1)c1ccccc1F)C2 (stereo not drawn) | platelet aggregation, light transmission aggregometry | human patients, platelet-rich plasma | dose not given, 4 to 6 h, added: TRAP 15 µM |  | inhibition | 23.1 ± 19.3%
N#Cc1ccn2c(-c3ccncc3)c(-c3ccc(F)cc3)nc2c1 | kinase binding, competitor, MIB/MS competition, measured: HSL1 | Candida albicans cell lysate | 1 µM | baseline: DMSO | log2 fold change | 0.0637
Nc1ncnc2c1ncn2[C@H]1C[C@H](O)[C@@H](COP(=O)(O)OP(=O)(O)O)O1 | binding, MIDAS equilibrium dialysis LC-MS | A2AR-BRIL thermostabilized | concentration not given | baseline: no-protein control | log2 fold change | -0.267
